Assay results gathered from unrelated publications.
Every numbered part comes from another study and shows a few of its results, in no order.

Block 1
Target: Hepatocyte nuclear factor 3-beta, forkhead domain (FOXA2, Homo sapiens, UniProt Q9Y261, residues 142-269)
Technique: protein-binding microarray
Molecule type: double-stranded DNA, one strand shown
Matrix: in vitro
Tested at: not given
Setting: k-mer, scored over probes, only values ≥0.25
Reading: higher = stronger binding
Residues (chain): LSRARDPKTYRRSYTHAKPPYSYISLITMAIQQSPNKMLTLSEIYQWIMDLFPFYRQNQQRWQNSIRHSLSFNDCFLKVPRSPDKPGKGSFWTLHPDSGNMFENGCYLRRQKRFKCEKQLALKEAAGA
With `ACATAATG` the E-score was 0.318.
The E-score of `TATAACCA` is reported as 0.275.
The E-score of `TTAGATAA` is reported as 0.256.
The E-score of `ACTATAAG` is reported as 0.262.
With `AGTTAATA` the E-score was 0.267.
`GTTGATAA` has an E-score of 0.365.
`ATAGTACC` gave an E-score of 0.28.
The E-score of `ATAGACAA` is reported as 0.323.
`ATAATAAC` has an E-score of 0.264.
With `ATTATTAC` the E-score was 0.272.
`ATACTTAA` has an E-score of 0.298.
The E-score of `ATATGAAA` is reported as 0.269.
`TAAGCTAA` gave an E-score of 0.257.
`GTAATTAC` has an E-score of 0.35.

Block 2
Target: RNA binding protein fox-1 homolog 2, RRM domain, GST-SBP tag (RBFOX2, Homo sapiens, UniProt O43251-10, residues 100-194)
Technique: RNA Bind-n-Seq
Molecule type: RNA
Matrix: in vitro
Tested at: 365 nM
Setting: natural RNA segment, single round, ends assumed
Baseline: no-protein control
Reading: higher = stronger binding
Constant ends, left off below: GGGAGUUCUACAGUCCGACGAUC … UGGAAUUCUCGGGUGCCAA
Construct (chain): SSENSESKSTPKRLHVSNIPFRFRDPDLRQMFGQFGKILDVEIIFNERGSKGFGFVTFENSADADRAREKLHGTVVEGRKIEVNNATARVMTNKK
`AAACAGCGGGGCUCCAGGAGCGGCAAGUGACAGUCACGGGGAGGUGCUGGUUCCAUGCCUGCUCUCGAGGCAGCAGUGGGUUCAGGCCCAUCAGCUACCCCUGCAGCUGG` — result for “RBNS enrichment (R)”: 0.433.
Under “RBNS enrichment (R)”, `UUGCCAAGUGCCUCUGCAGACUGGCCUUCCACCCUAGGCGCGGGCAGUUGGCAGAAGAAAGGCAGGGCAGUGUGUAGUGGAUGGGCAGCCUGCUGGCAGCCUGCAUAGGC` is recorded as 0.32.
For `GCGUUCCAGAUAAAAAUGAGACUUAGAAGACAGACUGGUCUAAUAUGCUCACUGGUCAUCACAUUCAGCUUAUUCUUACGUGCCAGUGAGGCCCUAAGGUCUCAGUGCAU`, “RBNS enrichment (R)” read 0.35.
Under “RBNS enrichment (R)”, `UGGUAACGGGGAUCACAUGCUCCAUGGUGCGCACGAUCCUGUGGUGUGAAGAGCAGGUCUGCUUUACCUUUCUUGCCAGGUUCAAACUGUGUUUUUAAAUGGAAGGGAUU` is recorded as 0.929.
`AGGGUGUGGCAUGGCUCAGUCUGGCCCCCUUGAUUACCGGCCUAGCCCCUGCUCACAUCACAGCUGUCUGAAGAACAGUGAGGUGGAGUGCCUAGAACUCCCGUGGUGGU` — result for “RBNS enrichment (R)”: 0.249.
Under “RBNS enrichment (R)”, `UGACUCAAGAAAGUACAAGUAAACUAUACACCUUUUUUUCAUAAGUUUUAGGAACUGUAGUAAUGUGGCUUAGAAAGUAUAAUGGCCUAAAUGUUUUCAAAAUGUAAGUU` is recorded as 1.37.
Under “RBNS enrichment (R)”, `UAUCUGCCAUUCUAUUUAUAGCCUGAAAUGAUUCUGGCCUACCCUGUCCUGUCUGUAUGAUCUAAAAACCAGCCUUUUCCCCAGAAGGCUCUGAGCACAUCCAGAAGUGA` is recorded as 0.601.
Under “RBNS enrichment (R)”, `UACCUCCUUCCCAGUGUUGGUGUUCACUCACUAUAUGUCUUUAAGAAAAUUAAAACUAUGGAAAAUUUGUCUAGCAUAUCAGAAGUUGUAAAUGCUAUAUCUGGUAUCCA` is recorded as 0.615.
For `AGGAAAUUAGAAUCUGUUUGCAAAUUGUCCAACCCACCCCCUCAACAUGAGGGGCUUCCAUUUUCUGUGUUUUGUAAGGGAACUGUUUCCUUCAUGCCGCCAUGUUCCUG`, “RBNS enrichment (R)” read 0.405.
`UGAAAAAUUCCUCUUUGAACCUGGCAGAUGCAGCUAGGCUCUGCAGUGCUGUUUGGAGACUGUGAGAGGGAGUGCGUGUGUUGACACAUGUGGAUCAGGCCCAGGAAGGG` — result for “RBNS enrichment (R)”: 0.395.
`AUGUGUAUUUCCAAUUUGGUCUUCAAUUCAAGAGAUGCUUCAUAAAACACUUAUAGCCUUAAACCAUUCAAGGGCUAAUUAAAAAAAUAGUUAUGAAAUCUUAGCCACAA`: “RBNS enrichment (R)” 0.583.
Under “RBNS enrichment (R)”, `GGGUCCGGGAUUGGGAAUCCGCCCAUCUGGGGGCCUCUUCUGCUUUCUCGGGAAUUUUCAUCUAGGAUUUUAAGGGAAGGGGAAGGAUAGGGUGAUGUUCCGAAGGUGAG` is recorded as 0.728.

Block 3
Target: Sal-like protein 4, full length isoform B (SALL4, Homo sapiens, UniProt Q9UJQ4-2, residues 1-616)
Technique: universal PBM
Molecule type: double-stranded DNA, one strand shown
Matrix: in vitro
Tested at: not given
Setting: 8-mer, flanks averaged, mean of replicates
Reading: higher = stronger binding
With `GTCAACAC` the E-score was 0.0008.
For `GTCCGGAA`, the E-score was -0.165.
With `CACCTCAG` the E-score was -0.155.
`CCTTGTCA` has an E-score of 0.171.
For `AGCGAGGG`, the E-score was -0.0786.
`ATTGCATC` gave an E-score of 0.0704.
`AAAGCCCA` has an E-score of -0.107.
`CGGCGTGA` has an E-score of -0.261.
With `CGATGCAA` the E-score was -0.123.
`CGCGAGTC` gave an E-score of -0.208.
`GCAGTCGC` gave an E-score of -0.201.
For `CTTTTCGA`, the E-score was 0.00318.
The E-score of `GCTCAGCC` is reported as -0.286.
The E-score of `CCTTTAGA` is reported as 0.0691.
`ATTGCGGA` has an E-score of 0.0585.
For `CAAGGGGC`, the E-score was -0.33.
For `CGTGCTCA`, the E-score was -0.117.
The E-score of `CCAGAATC` is reported as -0.12.
For `CGTAGACC`, the E-score was -0.21.
The E-score of `AGTGGCGA` is reported as -0.0765.
The E-score of `CTTCCTTA` is reported as 0.0902.
The E-score of `AACCTATG` is reported as 0.155.
`ACAACTCC` gave an E-score of -0.148.
`CGAATGGC` gave an E-score of -0.15.
`TCGGGAGA` has an E-score of -0.139.

Block 4
Target: Histone acetyltransferase KAT6A, both winged helices, GST fusion (KAT6A, Homo sapiens, UniProt Q92794, residues 1-181)
Technique: protein binding microarray
Molecule type: double-stranded DNA, one strand shown
Matrix: in vitro
Tested at: not given
Setting: 8-mer, flanks averaged, mean of 2 arrays, mostly near background
Baseline: not given
Reading: higher = stronger binding
Residues (chain): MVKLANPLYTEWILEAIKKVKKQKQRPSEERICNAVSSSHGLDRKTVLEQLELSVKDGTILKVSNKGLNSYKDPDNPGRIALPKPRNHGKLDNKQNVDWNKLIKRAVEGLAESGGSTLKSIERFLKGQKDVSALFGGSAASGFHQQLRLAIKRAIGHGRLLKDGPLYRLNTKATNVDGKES
`CAGCACCA` gave an E-score of -0.227.
The E-score of `GGCTCATA` is reported as -0.0361.
`AGACTCCA` gave an E-score of -0.198.
`CAGTCCGA` has an E-score of 0.125.
The E-score of `ATGTTCGA` is reported as -0.0752.
For `AGCGTAAA`, the E-score was 0.128.
`GGCGTGGA` gave an E-score of 0.108.
`AGTATGGG` gave an E-score of -0.273.
The E-score of `CAGCCCAA` is reported as -0.196.
With `AGTCTATA` the E-score was -0.0408.
The E-score of `AATTCTTG` is reported as -0.041.
With `ACCCCCCG` the E-score was 0.178.
`CATAAAAA` gave an E-score of -0.071.
With `CAGCGTGC` the E-score was 0.147.
For `AGCAGCGG`, the E-score was 0.0627.
The E-score of `TCGTACCA` is reported as -0.024.
With `GCGCATTA` the E-score was 0.21.
For `ACGGCGGC`, the E-score was 0.332.
For `AGCCCTGG`, the E-score was -0.24.
For `CAAACGAC`, the E-score was -0.00441.
`CGCAATTA` gave an E-score of 0.283.
With `GGGCATAC` the E-score was 0.00341.
